Measurements of several laboratories.
Numbered parts are unrelated; each lists some results of a single study.
Chain of UniProt P30530 (whole entry, looked up): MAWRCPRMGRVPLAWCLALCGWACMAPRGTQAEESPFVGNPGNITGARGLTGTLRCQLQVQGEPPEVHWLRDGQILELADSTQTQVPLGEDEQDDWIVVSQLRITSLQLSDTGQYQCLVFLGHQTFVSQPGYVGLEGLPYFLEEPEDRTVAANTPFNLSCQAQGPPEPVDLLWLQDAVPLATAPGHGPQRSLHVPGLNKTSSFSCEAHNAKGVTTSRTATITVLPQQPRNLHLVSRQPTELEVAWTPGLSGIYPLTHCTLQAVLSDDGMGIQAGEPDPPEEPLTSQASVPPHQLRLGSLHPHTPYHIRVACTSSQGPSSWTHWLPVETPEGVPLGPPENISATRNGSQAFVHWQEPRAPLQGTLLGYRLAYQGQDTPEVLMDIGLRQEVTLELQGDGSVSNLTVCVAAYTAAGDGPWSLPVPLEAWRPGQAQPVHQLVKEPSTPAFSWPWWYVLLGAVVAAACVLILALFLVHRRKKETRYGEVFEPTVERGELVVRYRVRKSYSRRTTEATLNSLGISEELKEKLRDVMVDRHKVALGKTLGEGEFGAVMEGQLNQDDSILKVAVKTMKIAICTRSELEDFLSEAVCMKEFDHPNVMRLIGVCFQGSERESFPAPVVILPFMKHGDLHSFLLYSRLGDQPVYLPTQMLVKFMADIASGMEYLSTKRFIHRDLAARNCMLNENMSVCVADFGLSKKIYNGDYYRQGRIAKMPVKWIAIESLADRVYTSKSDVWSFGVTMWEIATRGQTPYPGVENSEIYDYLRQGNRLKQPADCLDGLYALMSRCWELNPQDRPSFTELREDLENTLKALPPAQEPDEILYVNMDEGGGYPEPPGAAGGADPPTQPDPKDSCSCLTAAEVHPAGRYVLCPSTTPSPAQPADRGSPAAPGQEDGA
Chain of UniProt P10721 (whole entry, unmodified, looked up): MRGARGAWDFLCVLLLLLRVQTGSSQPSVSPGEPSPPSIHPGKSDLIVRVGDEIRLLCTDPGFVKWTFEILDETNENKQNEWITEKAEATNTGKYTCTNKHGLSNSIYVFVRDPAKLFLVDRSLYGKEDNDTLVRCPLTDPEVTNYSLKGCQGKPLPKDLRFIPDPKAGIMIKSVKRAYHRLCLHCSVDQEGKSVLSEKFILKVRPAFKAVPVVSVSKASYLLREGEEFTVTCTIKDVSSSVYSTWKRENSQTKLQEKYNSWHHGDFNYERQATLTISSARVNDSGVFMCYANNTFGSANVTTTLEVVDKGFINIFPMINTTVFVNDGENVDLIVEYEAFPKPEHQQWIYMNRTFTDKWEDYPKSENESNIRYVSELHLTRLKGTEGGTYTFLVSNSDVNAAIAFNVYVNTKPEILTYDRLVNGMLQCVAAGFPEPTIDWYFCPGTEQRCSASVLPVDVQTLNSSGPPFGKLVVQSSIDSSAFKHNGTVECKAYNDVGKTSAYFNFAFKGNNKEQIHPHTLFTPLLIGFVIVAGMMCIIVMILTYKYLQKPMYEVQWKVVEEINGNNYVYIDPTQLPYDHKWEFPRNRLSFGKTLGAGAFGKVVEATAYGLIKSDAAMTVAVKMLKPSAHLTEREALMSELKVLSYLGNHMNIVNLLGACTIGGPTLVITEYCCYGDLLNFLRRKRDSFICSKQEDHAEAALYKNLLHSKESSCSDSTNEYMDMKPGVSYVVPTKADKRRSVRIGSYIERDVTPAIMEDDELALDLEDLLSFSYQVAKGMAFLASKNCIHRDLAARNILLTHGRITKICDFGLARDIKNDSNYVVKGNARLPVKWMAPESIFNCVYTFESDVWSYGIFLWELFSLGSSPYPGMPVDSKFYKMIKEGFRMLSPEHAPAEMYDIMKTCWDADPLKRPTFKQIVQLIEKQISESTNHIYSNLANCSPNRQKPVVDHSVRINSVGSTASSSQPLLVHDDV
Chain of UniProt Q9HAZ1 (whole entry, looked up): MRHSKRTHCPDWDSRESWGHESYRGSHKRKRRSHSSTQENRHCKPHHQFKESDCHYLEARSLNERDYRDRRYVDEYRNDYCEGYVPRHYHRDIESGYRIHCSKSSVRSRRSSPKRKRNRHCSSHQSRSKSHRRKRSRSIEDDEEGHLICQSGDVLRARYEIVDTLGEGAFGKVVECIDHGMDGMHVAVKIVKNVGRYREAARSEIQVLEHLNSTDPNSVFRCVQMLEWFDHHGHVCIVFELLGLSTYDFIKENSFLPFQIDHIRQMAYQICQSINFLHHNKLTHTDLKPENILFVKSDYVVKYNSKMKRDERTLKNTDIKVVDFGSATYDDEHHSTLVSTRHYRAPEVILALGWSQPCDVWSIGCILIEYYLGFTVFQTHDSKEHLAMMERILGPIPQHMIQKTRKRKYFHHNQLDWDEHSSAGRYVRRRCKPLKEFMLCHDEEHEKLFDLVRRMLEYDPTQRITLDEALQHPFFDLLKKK
Chain of UniProt P28482 (whole entry, looked up): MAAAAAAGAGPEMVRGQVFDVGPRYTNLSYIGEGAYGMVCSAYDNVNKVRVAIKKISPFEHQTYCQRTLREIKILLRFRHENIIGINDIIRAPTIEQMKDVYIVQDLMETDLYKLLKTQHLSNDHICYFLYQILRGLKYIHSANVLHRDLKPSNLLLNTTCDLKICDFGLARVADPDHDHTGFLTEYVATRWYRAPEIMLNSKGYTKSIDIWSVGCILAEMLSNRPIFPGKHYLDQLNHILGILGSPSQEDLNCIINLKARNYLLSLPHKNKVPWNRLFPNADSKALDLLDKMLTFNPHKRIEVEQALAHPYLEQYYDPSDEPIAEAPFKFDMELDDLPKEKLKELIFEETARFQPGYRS
Chain of UniProt Q86UE8 (whole entry, looked up): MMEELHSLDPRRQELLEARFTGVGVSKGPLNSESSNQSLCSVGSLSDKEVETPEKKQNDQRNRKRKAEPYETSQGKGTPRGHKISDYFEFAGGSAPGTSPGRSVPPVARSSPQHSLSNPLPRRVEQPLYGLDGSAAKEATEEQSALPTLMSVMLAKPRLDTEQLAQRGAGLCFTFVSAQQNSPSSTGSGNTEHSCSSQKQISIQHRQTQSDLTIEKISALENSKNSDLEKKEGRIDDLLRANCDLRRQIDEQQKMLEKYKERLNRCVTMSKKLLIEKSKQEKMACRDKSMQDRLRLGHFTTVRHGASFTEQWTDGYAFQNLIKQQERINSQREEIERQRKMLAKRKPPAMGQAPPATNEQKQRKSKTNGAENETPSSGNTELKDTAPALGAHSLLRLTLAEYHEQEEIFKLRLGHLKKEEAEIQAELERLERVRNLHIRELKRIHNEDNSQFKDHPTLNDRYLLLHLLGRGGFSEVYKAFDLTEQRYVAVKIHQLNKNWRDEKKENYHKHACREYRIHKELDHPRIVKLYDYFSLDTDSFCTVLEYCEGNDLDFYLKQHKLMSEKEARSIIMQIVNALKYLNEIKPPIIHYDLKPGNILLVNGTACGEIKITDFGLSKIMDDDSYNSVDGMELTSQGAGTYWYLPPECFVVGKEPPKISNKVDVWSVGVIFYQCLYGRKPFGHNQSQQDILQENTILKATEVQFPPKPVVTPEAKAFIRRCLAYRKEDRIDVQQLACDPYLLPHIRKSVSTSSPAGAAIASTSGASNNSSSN
Chain of UniProt Q9H4B4 (whole entry, looked up): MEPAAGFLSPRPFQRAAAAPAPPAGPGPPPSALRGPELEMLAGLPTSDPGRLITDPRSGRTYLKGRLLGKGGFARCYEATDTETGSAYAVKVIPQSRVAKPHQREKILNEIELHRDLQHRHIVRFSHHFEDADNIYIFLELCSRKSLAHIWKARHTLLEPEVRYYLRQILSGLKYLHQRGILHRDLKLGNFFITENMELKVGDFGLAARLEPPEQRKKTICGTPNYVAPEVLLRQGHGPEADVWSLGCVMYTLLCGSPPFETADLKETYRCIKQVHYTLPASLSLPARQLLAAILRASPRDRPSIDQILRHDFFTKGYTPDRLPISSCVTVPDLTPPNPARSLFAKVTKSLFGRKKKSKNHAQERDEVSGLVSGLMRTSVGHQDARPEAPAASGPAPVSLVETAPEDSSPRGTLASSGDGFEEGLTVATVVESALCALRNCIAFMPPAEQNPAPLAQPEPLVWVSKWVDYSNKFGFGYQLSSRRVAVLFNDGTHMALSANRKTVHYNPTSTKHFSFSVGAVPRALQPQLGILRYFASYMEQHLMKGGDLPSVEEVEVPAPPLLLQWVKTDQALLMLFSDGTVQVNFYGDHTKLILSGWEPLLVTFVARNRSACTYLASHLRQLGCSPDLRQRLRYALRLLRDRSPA
Chain of UniProt Q8TBX8 (whole entry, looked up): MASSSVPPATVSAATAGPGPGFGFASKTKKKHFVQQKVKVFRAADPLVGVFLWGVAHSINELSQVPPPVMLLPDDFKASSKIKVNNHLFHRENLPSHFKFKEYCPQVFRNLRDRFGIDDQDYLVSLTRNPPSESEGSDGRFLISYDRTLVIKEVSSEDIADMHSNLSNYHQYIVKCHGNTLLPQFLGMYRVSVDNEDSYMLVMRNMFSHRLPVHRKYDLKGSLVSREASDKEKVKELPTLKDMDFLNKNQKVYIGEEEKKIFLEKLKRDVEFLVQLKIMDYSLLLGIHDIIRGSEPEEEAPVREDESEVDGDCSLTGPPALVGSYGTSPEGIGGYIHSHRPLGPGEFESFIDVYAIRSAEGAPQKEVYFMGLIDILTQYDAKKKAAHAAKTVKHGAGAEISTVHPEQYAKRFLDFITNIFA

Sample 1 — effect on: enzyme activity; action: inhibitor; concentration: 10 µM
Target: Calcium/calmodulin-dependent protein kinase type II subunit alpha (CAMK2A, Homo sapiens, UniProt Q9UQM7)
Chain of UniProt Q9UQM7 (whole entry, looked up): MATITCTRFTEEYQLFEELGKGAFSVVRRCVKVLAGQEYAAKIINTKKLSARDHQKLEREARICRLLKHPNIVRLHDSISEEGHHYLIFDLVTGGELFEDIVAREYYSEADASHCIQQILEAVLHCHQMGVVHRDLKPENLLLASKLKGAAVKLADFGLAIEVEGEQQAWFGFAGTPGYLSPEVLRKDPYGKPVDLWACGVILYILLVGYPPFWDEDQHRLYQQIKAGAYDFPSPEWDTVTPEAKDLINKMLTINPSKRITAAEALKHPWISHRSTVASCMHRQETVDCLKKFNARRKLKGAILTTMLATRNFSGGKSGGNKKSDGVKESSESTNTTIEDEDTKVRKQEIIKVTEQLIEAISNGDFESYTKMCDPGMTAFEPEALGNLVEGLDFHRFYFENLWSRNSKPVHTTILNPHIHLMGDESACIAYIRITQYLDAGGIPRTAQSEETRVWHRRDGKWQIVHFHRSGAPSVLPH
With `CCCCNc1cc(C(=O)O)cc(S(N)(=O)=O)c1Oc1ccccc1` the inhibition was 7%.
The inhibition of `N=C(N)NC(=N)NCCc1ccccc1` is reported as -10%.
With `C[C@]12CC[C@H]3[C@@H](CC=C4C[C@@H](O)CC[C@@]43C)[C@@H]1CC[C@@H]2C(=O)CO` the inhibition was -36%.
`CC(=O)Oc1c(C)c(C)c2c(c1C)CC[C@@](C)(CCC[C@H](C)CCC[C@H](C)CCCC(C)C)O2` has an inhibition of 15%.
The inhibition of `CC(C)CC(=O)C(=O)O` is reported as -9%.
`COC(=O)CC/C(C)=C/Cc1c(O)c2c(c(C)c1OC)COC2=O` gave an inhibition of -53%.
`CCNC(=O)[C@@H]1CCCN1C(=O)[C@H](CCCN=C(N)N)NC(=O)[C@H](CC(C)C)NC(=O)[C@@H](C)NC(=O)[C@H](Cc1ccc(O)cc1)NC(=O)[C@H](CO)NC(=O)[C@H](Cc1c[nH]c2ccccc12)NC(=O)[C@H](Cc1cnc[nH]1)NC(=O)C1CCC(=O)N1` (some centres unmarked) has an inhibition of -8%.

Sample 2 — host: human; sample: microsomes or S9; concentration: 2 µM; time: 0.5 h
`CCOC(=O)c1ccc(Nc2nc3ccc(Cl)cc3n3cnnc23)cc1` gave a remaining compound of > 100%.
The remaining compound of `CC(C(=O)Nc1nnn[nH]1)c1ccc(-c2ccccc2)c(F)c1` (centres unmarked) is reported as > 100%.
`C=CCO/N=C/c1cn(CC=C)c2ccc(OC)cc12` has a remaining compound of 68.8%.
For `Cc1nc(C)c(C(=O)NCc2ccccc2)c(-c2ccc(Cl)cc2)c1C(=O)O`, the remaining compound was > 99%.
With `Cc1ccc(C(=O)N2CCN(C(=O)c3ccc(C)cc3)C2)cc1` the remaining compound was 68.2%.
`CC(C)Oc1ccc(C(=O)O)cc1NC(=O)c1cccn1C` has a remaining compound of 80.5%.
With `Cc1nn(C2CCS(=O)(=O)C2)c2c1C(C(C)C)CC(=O)N2` (centres unmarked) the remaining compound was 74.2%.
For `O=C(NNc1ncnc2[nH]cnc12)C1CCCCC1`, the remaining compound was 77.4%.
`Cc1ccc2c(C)c(C(=O)Nc3ccc4c(c3)NC(=O)C(C)O4)oc2c1` (centres unmarked) has a remaining compound of > 100%.
The remaining compound of `N#Cc1cnn(-c2nnc(-c3ccccc3)c(-c3ccccc3)n2)c1N` is reported as 81.8%.
`Nc1ncc(Br)cc1S(=O)(=O)N1CCC(Oc2ccncc2)C1` (centres unmarked) has a remaining compound of 62.9%.
For `COc1ccc(C2C(C(=O)Nc3ccccc3OC)CCC(=O)N2c2ccc3c(c2)OCO3)cc1` (centres unmarked), the remaining compound was 91.6%.

Sample 3 — SMILES: CC(C)N(CCC(=O)c1ccc2ccccc2c1)Cc1ccccc1; effect on: enzyme activity; action: inhibitor; concentration: 0.5 µM; reference: control
For Calcium/calmodulin-dependent protein kinase type 1B (PNCK, Homo sapiens, UniProt Q6P2M8): remaining activity read 102%.
For Dual specificity protein kinase CLK3 (CLK3, Homo sapiens, UniProt P49761): remaining activity read 99.6%.
The remaining activity was 104% (Serine/threonine-protein kinase tousled-like 2 (TLK2, Homo sapiens, UniProt Q86UE8)).
It gave 94.4% for remaining activity (Mitogen-activated protein kinase 14 (MAPK14, Homo sapiens, UniProt Q16539)).
For Vascular endothelial growth factor receptor 2 (KDR, Homo sapiens, UniProt P35968): remaining activity read 98.9%.
It gave 92.9% for remaining activity (Cyclin-dependent kinase 1, with cyclin A (CDK1, Homo sapiens, UniProt P06493)).
Serine/threonine-protein kinase PLK3 (PLK3, Homo sapiens, UniProt Q9H4B4) — remaining activity: 105%.
For Cyclin-dependent kinase 9, with cyclin K (CDK9, Homo sapiens, UniProt P50750): remaining activity read 99.5%.
It gave 87.4% for remaining activity (Mitogen-activated protein kinase 1 (MAPK1, Homo sapiens, UniProt P28482)).
G protein-coupled receptor kinase 4 (GRK4, Homo sapiens, UniProt P32298) — remaining activity: 94.9%.
It gave 98.3% for remaining activity (Serine/threonine-protein kinase DCLK2 (DCLK2, Homo sapiens, UniProt Q8N568)).
For Serine/threonine-protein kinase PAK 3 (PAK3, Homo sapiens, UniProt O75914): remaining activity read 98.6%.
The remaining activity was 91.7% (Dual specificity protein kinase CLK4 (CLK4, Homo sapiens, UniProt Q9HAZ1)).
The remaining activity was 93.5% (Myosin-IIIb (MYO3B, Homo sapiens, UniProt Q8WXR4)).

Sample 4 — effect on: cell-free assay; method: competition with immobilised ligand; concentration: 0.1 µM
Structure (SMILES): C[C@@H]1CN(c2cc(-c3n[nH]c4ccc(OC5(C)CC5)cc34)ncn2)C[C@H](C)O1
For Phosphatidylinositol 5-phosphate 4-kinase type-2 gamma (PIP4K2C, Homo sapiens, UniProt Q8TBX8): remaining binding read 90%.
For Phosphatidylinositol 4,5-bisphosphate 3-kinase catalytic subunit alpha isoform (PIK3CA, Homo sapiens, UniProt P42336, E545K): remaining binding read 65%.
It gave 100% for remaining binding (Tyrosine-protein kinase receptor UFO (AXL, Homo sapiens, UniProt P30530)).
Mast/stem cell growth factor receptor Kit (KIT, Homo sapiens, UniProt P10721, D816V) — remaining binding: 79%.
It gave 71% for remaining binding (Tyrosine-protein kinase ABL1, phosphorylated (ABL1, Homo sapiens, UniProt P00519, H396P)).
For Rhodopsin kinase GRK7 (GRK7, Homo sapiens, UniProt Q8WTQ7): remaining binding read 64%.
eIF-2-alpha kinase GCN2, C-terminal kinase domain (EIF2AK4, Homo sapiens, UniProt Q9P2K8, S808G) — remaining binding: 81%.
It gave 100% for remaining binding (Hepatocyte growth factor receptor (MET, Homo sapiens, UniProt P08581)).

Repeated from above (sample 2):
For `Cc1nc(C)c(C(=O)NCc2ccccc2)c(-c2ccc(Cl)cc2)c1C(=O)O`, the remaining compound was > 99%.
For `COc1ccc(C2C(C(=O)Nc3ccccc3OC)CCC(=O)N2c2ccc3c(c2)OCO3)cc1` (centres unmarked), the remaining compound was 91.6%.
The remaining compound of `CC(C(=O)Nc1nnn[nH]1)c1ccc(-c2ccccc2)c(F)c1` (centres unmarked) is reported as > 100%.
